Measurements from different studies.

COCCCN1CCc2c(Cc3ccc(Cl)cc3)[nH]c3c(OC(F)F)ccc(c23)C1=O
MRT(0-t) (male Sprague-Dawley rat, blood; intravenous, 2.5 mg/kg): 2.34 h

Cn1cc(-c2cc(N3CCCCS3(=O)=O)ccc2N[C@H]2CC[C@H](C)CC2)c2cc[nH]c2c1=O (stereo in doubt)
MRT(0-inf) (Sprague-Dawley rat, plasma; intravenous, 1 mg/kg): 1.2 h

COC(=O)/C=C/C(=O)c1ccc(OC)cc1
MRT (Sprague-Dawley rat, plasma; oral, 200 mg/kg): 13.1 h

COc1ccc(S(=O)(=O)N2CCc3ccccc3C2)cc1N1CCN(C(=O)c2ccc(F)cc2C(F)(F)F)CC1
MRT (rat, plasma; intravenous, 10 mg/kg, single dose): 0.72 h

Cc1cc(/C=C/C#N)cc(C)c1Oc1nc(NC2CCN(Cc3ccc(S(C)(=O)=O)cc3)CC2)nc2ncccc12
MRT(0-inf) (Sprague-Dawley rat, plasma; oral, 20 mg/kg): 3.48 h

Nc1nc(Cl)nc2c1ncn2Cc1cc(OCC(F)F)cc(OC(F)F)c1
MRT(0-t) (Sprague-Dawley rat, plasma; intravenous, 2.5 mg/kg): 7.81 h

Cn1cc(-c2cc(N3CCCS3(=O)=O)ccc2N[C@H]2CC[C@H](C)CC2)c2cc[nH]c2c1=O
MRT(0-inf) (Sprague-Dawley rat, plasma; intravenous, 1 mg/kg): 1.66 h

COc1cc(NC(C)=O)c2c(c1O)-c1c(OC)c(OC)cc3c1C(C2)N(C)CC3 (stereo not drawn)
MRT(0-inf) (HPLC; male Wistar rat, plasma; intravenous, 100 mg/kg): 2.22 h

N#Cc1cnc2cc(OCC3CCNCC3)c(F)cc2c1Nc1cc(F)c(OCc2cccc(Cl)n2)cc1Cl
MRT (male Sprague-Dawley rat, plasma; oral, 300 mg/kg): 11.8 h

CCCN(c1ccc(C(=O)NCCC(=O)O)cc1)S(=O)(=O)c1cc(C)c(-c2ccc(C(C)(C)C)cc2)c(C)c1
MRT (rat, plasma; oral, 5 mg/kg): 3.05 h

CC(C)(C)C(=O)Nc1ccc2[nH]c(CN3CCC(N(CCCN4CCOCC4)CC4OC(n5cnc6c(N)ncnc65)C(O)C4O)CC3)nc2c1 (stereo not drawn)
MRT (male Sprague-Dawley rat, plasma; intravenous, 20 mg/kg): 1.14 h

O=C(N[C@@H](CC1CCCCC1)C(=O)N[C@@H](C[C@H]1CCNC1=O)C(=O)C(=O)NC1CC1)OCc1cccc(Cl)c1
MRT (female Sprague-Dawley rat, plasma; intravenous, 10 mg/kg): 5.55 h

CNC(=O)N[C@]1(C)CCC[C@@]2(C)C3CC[C@@]4(C)C[C@]3(CCC21)CC4=O (single isomer, unassigned)
MRT(0-inf) (male Sprague-Dawley rat, plasma; intravenous, 2 mg/kg): 0.344 h

O=c1c2cc(Cl)ccc2sc2c(NCc3ccccc3)nc3ccccc3c12
MRT (male Sprague-Dawley rat, plasma; intravenous, 3 mg/kg, single dose): 2.56 h

CSCOC1C(=O)C2(C)C(OCSC)CC3OCC3(OC(C)=O)C2C(OC(=O)c2ccccc2)C2(O)CC(OC(=O)C(O)C(C=C(C)C)NC(=O)OC(C)(C)C)C(C)=C1C2(C)C (stereo not drawn)
MRT(0-t) (female Sprague-Dawley rat, plasma; intravenous, 1 mg/kg): 3.5 h

Repeated from above:
CC(C)(C)C(=O)Nc1ccc2[nH]c(CN3CCC(N(CCCN4CCOCC4)CC4OC(n5cnc6c(N)ncnc65)C(O)C4O)CC3)nc2c1 (stereo not drawn)
MRT (male Sprague-Dawley rat, plasma; intravenous, 20 mg/kg): 1.14 h

COC(=O)/C=C/C(=O)c1ccc(OC)cc1
MRT (Sprague-Dawley rat, plasma; oral, 200 mg/kg): 13.1 h
